# Literature values as cited in several papers.
# Lines come from different studies, so protocols differ. ± gives the spread as reported.
Structure (SMILES),target or system,assay,test system,setting,how to read,endpoint,result
Cc1nccn1CC1CCc2c(c3ccccc3n2C)C1=O (stereo not shown),5-HT3 receptor,,,,,koff,0.00967 s⁻¹
NCCc1c[nH]c2ccc(O)cc12,5-HT2A receptor Y7.43A,,,concentration not given,reference: wild type receptor,efficacy reduction,10 fold
O=C1CC[C@H](N2Cc3cc(N4CCN(CC5CCN(c6ccc([C@@H]7c8ccc(O)cc8CC[C@@H]7c7ccccc7)cc6)CC5)CC4)ccc3C2=O)C(=O)N1,"Estrogen receptor (ESR1, Homo sapiens, UniProt P03372)",degrader,human patients,200 mg once daily,,maximum reduction,95%
c1ccc2c(c1)cc1c3c2ccc2cccc(c23)C1,"Ahr (Rattus norvegicus, UniProt P41738)",,,50% effect level,reference: benzo[a]pyrene,relative potency,1
CCN(c1cc(-c2ccc(CN3CCOCC3)cc2)cc(C(=O)NCc2c(C)cc(C)[nH]c2=O)c1C)C1CCOCC1,"Protein arginine N-methyltransferase 5, with WDR77 (PRMT5, Homo sapiens, UniProt O14744)","enzyme activity, inhibitor",,1 µM,,inhibition,2 ± 6%
CC1(C)S[C@@H]2[C@H](NC(=O)[C@H](N)c3ccccc3)C(=O)N2[C@H]1C(=O)O,Enterobacter cloacae,,clinical isolate RKI-No_5/14,,,MIC,> 16 µg/mL
CC(C)CCC[C@@H](C)[C@H]1CC[C@H]2[C@@H]3CC=C4C[C@@H](O)CC[C@]4(C)[C@H]3CC[C@]12C,"Cholesterol side-chain cleavage enzyme, mitochondrial (Bos taurus, UniProt P00189)",substrate,,,,metabolism rate,6.1 mol/min/mol
C=CC(=O)N1CCC(C(=O)NCC(=O)N2CCN(c3nc(-c4cnc(N)nc4C(F)F)nc(N4CCOCC4)n3)CC2)CC1,"PIK3CA (Homo sapiens, UniProt P42336, H1047L)",kinase activity,,1 µM,,remaining activity,0.45%
C[C@]12CC[C@@H]3c4ccc(O)cc4CC[C@H]3[C@@H]1CCC2=O,"Androgen receptor (Ar, Rattus norvegicus, UniProt P15207)",,,concentration not given,,activity class,active
Nc1cc(C(F)(F)F)c(-c2nc(N3CCOCC3)nc(N3CCOCC3)n2)cn1,"Tyrosine-protein kinase JAK1, JH2 pseudokinase domain (JAK1, Homo sapiens, UniProt P23458)",KinomeScan competition binding,,10 µM,,remaining binding,20%
CC1=CC(=O)N(c2ccccc2)C1=O,YqjM (Old Yellow Enzyme homolog),"ene-reductase biotransformation, substrate",,,,conversion,98 to 99%
CC(C)(O/N=C(\C(=O)N[C@@H]1C(=O)N2C(C(=O)[O-])=C(C[n+]3ccccc3)CS[C@H]12)c1csc(N)n1)C(=O)O,Escherichia coli,,clinical isolate RKI-No_317/16,,,MIC,≤ 2 µg/mL
Cc1nc(NC(=O)N2CCC[C@H]2C(N)=O)sc1-c1ccnc(C(C)(C)C(F)(F)F)c1,"PIK3C2G (Homo sapiens, UniProt O75747)",KinomeScan competition binding,,10 µM,,remaining binding,9.6%
Nc1cc(C(F)(F)F)c(-c2nc(N3CCOCC3)nc(N3CCOCC3)n2)cn1,"MAP3K2 (Homo sapiens, UniProt Q9Y2U5)",enzyme activity,,10 µM,reference: untreated,remaining activity,100%
CC(=O)N[C@@H](COP(=O)(O)O)C(=O)N1CCC[C@H]1C(=O)N[C@@H](C)C(=O)N[C@@H](Cc1ccccc1)C(N)=O,"Breast cancer type 1 susceptibility protein, tandem BRCT domains (BRCA1, Homo sapiens, UniProt P38398)",isothermal titration calorimetry,,,,−TΔS,8.8 ± 1.4 kcal/mol
O=C(c1cccnc1-c1ccncc1)N1CCC(O)(Cc2ccccc2)CC1,cholesterol 24-hydroxylase,PET,"monkey, brain",0.89 mg/kg,,enzyme occupancy,100%
CCCC[C@@H](NC(=O)[C@@H](Cc1cn(C(=O)OC)c2ccccc12)NC(=O)[C@H](CC(C)(C)C)NC(=O)N1[C@H](C)CCC[C@@H]1C)C(=O)O,"EDNRB (Homo sapiens, UniProt P24530)",,,human receptors,reference: ETB over ETA,selectivity ratio,100 fold
CO[C@@H]1O[C@H](CO)[C@H](O)[C@H](O)[C@H]1O,"lecA (Pseudomonas aeruginosa, UniProt Q05097)",ITC,,,,-TΔS,3.59 kcal/mol
Cc1cc(NC(=O)c2cccc(NC(=O)/C=C/CN(C)C)c2)ccc1Nc1nccc(-c2cccnc2)n1,"MYLK2 (Homo sapiens, UniProt Q9H1R3)","enzyme activity, inhibitor",,1 µM,reference: vehicle,remaining activity,13%
Cc1cc(NS(=O)(=O)c2ccc(N)cc2)no1,NAT1,substrate,,,,Km,1200 µM
CNC(=O)[C@H]1O[C@@H](n2cnc3c(NCc4cccc(I)c4)ncnc32)[C@H](O)[C@@H]1O,"ADORA3 (Homo sapiens, UniProt P0DMS8)",,,historical reference value,,Hill coefficient,0.8
Cc1cc(O)c2c(c1)C(=O)c1cc(O)cc(O)c1C2=O,"AVPR1A (Homo sapiens, UniProt P37288)",antagonist,,50 µM,,inhibition,69.3 ± 1.34%
O=C(Nc1nc2ccccc2[nH]1)c1ccccc1,SUMO1/sentrin specific peptidase 7,,,"12.5 µM, PubChem AID 488917",,response,100%
CCOC(=O)C1=C(C)NC(C)=C(C(=O)OC)C1c1cccc([N+](=O)[O-])c1 (stereo not shown),"Cacna1c (Rattus norvegicus, UniProt P22002)",,,historical reference value,,Hill coefficient,0.9
O=C(c1ccc(F)cc1)C1CCN(CCn2c(=O)[nH]c3ccccc3c2=O)CC1,"HTR2B (Homo sapiens, UniProt P41595)",binding,,,,Hill coefficient,0.6

# A few entries again:
Structure (SMILES),target or system,assay,test system,setting,how to read,endpoint,result
NCCc1c[nH]c2ccc(O)cc12,5-HT2A receptor Y7.43A,,,concentration not given,reference: wild type receptor,efficacy reduction,10 fold
O=C1CC[C@H](N2Cc3cc(N4CCN(CC5CCN(c6ccc([C@@H]7c8ccc(O)cc8CC[C@@H]7c7ccccc7)cc6)CC5)CC4)ccc3C2=O)C(=O)N1,"Estrogen receptor (ESR1, Homo sapiens, UniProt P03372)",degrader,human patients,200 mg once daily,,maximum reduction,95%
c1ccc2c(c1)cc1c3c2ccc2cccc(c23)C1,"Ahr (Rattus norvegicus, UniProt P41738)",,,50% effect level,reference: benzo[a]pyrene,relative potency,1
